# Measured values gathered from unrelated publications.
# Each numbered part is a random draw from the data of one study; scales do not carry over between parts.

# Study 1 — method: RNA Bind-n-Seq; form: RNA; sample: in vitro; concentration: 365 nM; relative to: no-protein control; reading: higher = stronger binding
# Target: RNA binding protein fox-1 homolog 2, RRM domain, GST-SBP tag (RBFOX2, Homo sapiens, UniProt O43251-10, residues 100-194)
# Setting: natural RNA segment, single round, ends assumed
# Constant ends, left off below: GGGAGUUCUACAGUCCGACGAUC … UGGAAUUCUCGGGUGCCAA
# Residues (chain): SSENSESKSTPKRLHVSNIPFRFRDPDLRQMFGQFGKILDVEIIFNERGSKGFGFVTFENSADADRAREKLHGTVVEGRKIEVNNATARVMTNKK
Sequence,RBNS enrichment (R)
GACAGCACAGAGCCGCGGCGUACACACUGACGUACCCACCACCAACAGAUUGAGGCACUGACGCAGCCAGCUUAGCCCAGCAUUACUGUCUCUGUUGUGAGCUUGCUCUU,0.416
CACUUCCUCCUUUAAAAUGUCCUAUGCUUCCAGAGUCGGAACCUGAGUUAUAUGUGGUAGAUUAUAUUGACUCCAACCAUCAGCCUUUCUGAUGAGCCUGUAGAGAAGCC,0.808
UGAGCGUGGAGUUGCCGUUCUGUGCACUGAUAAAGCUAGACUUUUCUCCAGUCCUCUUUCUGGAAUAGGAAACUCCCAAUAUUUAACCUUCAUUCAUCCUUAACGGUGUG,0.34
AGACACUGCCGGGCCUCCCUCCCGGGGGCACUGCCUGAAGGCGAGUGUGGGCAUAGCAUUAGCUGCUUCCUCCCCUCCUGGCACCCACUGUGGCCUGGCAUCGCAUCGUG,0.67
GGAAACGCGCAGAUGUCCAAAAGUCUAAAUAAAUGCAUUCAGAGGUUUUUGGGGUCCAUGGCCAAGUGGAGUUCCCCCAGAGGGGGAGGUGGGGUAAGUGCCUCCAGGAA,6.46
GGCCCUCCUCCCCGGCCCUCCCUGGCCCGGCCACUCCGAAGGCAGGGAGGAGGACUUGGCAACUGGCUUUUCUCCUGUGGAGUCGUCACACGCCAUCCAGCAGCGCUAAG,0.198
GUCAUUGGUUUGAUUGUCUCACUGUCCUUCAUUCAGGGCUCUGAGUUUCCUUUGGGCUGCCUUUCUAUCACAUUUGUGAAGGAUGGAUUUCUCAGCAGGGCUGAUGCUGC,0.362
CUGUGCCCCAGCGGUCACUCACAACAUAGGUCUGUUGAGUCUUUUUUAAAUGCACUAGGAGCCAACUCUGUCCAUCUGUGAUGGGAUUAGAAAGCCCGGUGUUUUUCUGU,0.297
UCUCCUGUCCAUGGGAAGCUUUUCCCCCUCUGCAGGGCUCCCUCAGCUGGACCAUCGUCCCUGCUUCUCUUAUGAUCGCCCCACCUCAUUUCCAUUUCAGUCUGGGGACC,0.528
AUACCCAGGUUUGGUUCCUCUAGGGGGGGGCCCCCACUGUGGAGAUAAAAGUCGGGGAUGGAAUGGGGGAAGAGGAAGGGCAGGAAAGCCCUCACCCUUUGCUGCCCUGG,0.313
CACUCAGCAAACAUUUCCUGAGUACCUACUAUAUACCAAACUUAUAGAAAGACUAACUAGGGAACAACAAGGCCACAAACAAGCCACCUGGCACAGCAGCCUUCUACUCA,0.169
CACACUCCAUCUCCCCGCUUUGUAAAUACCCAUCGGGAAGAGACUUUUUUUCCAUGGUGAAGAGCAAUAAACUCUGGAUGUUUGUGCGCGUGUGUGGACAGUCUUAUCUU,0.411

# Study 2 — method: RNA Bind-n-Seq; form: RNA; sample: in vitro; concentration: 1 µM; setting: whole 134-nt RNA, ends assumed; with: 150 mM KCl; relative to: input library; reading: higher = stronger binding
# Target: Ras GTPase-activating protein-binding protein 1, C-terminal RGG region (G3BP1, Homo sapiens, UniProt Q13283)
# Sequence of UniProt Q13283 (whole entry, looked up): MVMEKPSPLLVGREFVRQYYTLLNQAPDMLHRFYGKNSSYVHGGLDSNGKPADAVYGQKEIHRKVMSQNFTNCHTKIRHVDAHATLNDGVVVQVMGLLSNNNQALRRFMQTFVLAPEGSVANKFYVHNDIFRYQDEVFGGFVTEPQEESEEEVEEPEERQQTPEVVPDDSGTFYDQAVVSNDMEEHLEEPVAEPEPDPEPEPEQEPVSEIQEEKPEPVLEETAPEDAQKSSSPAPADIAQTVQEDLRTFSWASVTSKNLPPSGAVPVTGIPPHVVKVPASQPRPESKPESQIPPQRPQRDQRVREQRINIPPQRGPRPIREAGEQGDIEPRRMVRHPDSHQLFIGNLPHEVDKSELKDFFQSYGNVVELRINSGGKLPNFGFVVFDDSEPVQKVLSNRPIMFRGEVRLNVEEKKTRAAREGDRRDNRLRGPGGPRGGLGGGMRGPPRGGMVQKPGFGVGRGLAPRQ
# Constant ends, left off below: GGGAGUUCUACAGUCCGACGAUC … UGGAAUUCUCGGGUGUCAAGG
Sequence,log2 enrichment
AGUCCUGUGCUACACAUCGUAUGUACCGAAUCGGAAAAGGGAAAAGGGGAAAAGGGGAAAGUAUUAUGUUACGCCGUUCGGAUCUGCACU,-0.711
UCCUGUGCUACACAUCGUAUGUACCGAAUCGGGGCCCCCCGGGCCCCCCGGCCCCCCGGAAAGUAUUAUGUUACGCCGUUCGGAUCUGCA,-0.975
ACCAUGCAGGUGGGCAUCUUUGGGAAGUUGGGCAAGGGGGGGAUAGGGAGGGGGGUAACACUUUGGGAACAGGUGGUCCCAGGUCGUUUC,-1.32
UUUCUAGGGAAGGUGCUUCUGGAAAAGUUGCUGAGGUCUUGUCCUAAGGUGAAUUCAGUAUAUGUUUUGGUGAGGCAGAAAGCUGGACAG,-2.05
UCCUGUGCUACACAUCGUAUGUACCGAAUCGGGUUUUUGGGAAAAAGGGUUUUUUUGGGAAAGUAUUAUGUUACGCCGUUCGGAUCUGCA,-0.521
GUCCUGUGCUACACAUCGUAUGUACCGAAUCGGGAAAAAGGGGAAAAAGGGAAAAAGGGAAAGUAUUAUGUUACGCCGUUCGGAUCUGCA,-0.545
CACAGACAACACGCACCCACACAGACACAGAGGGAAGGGGUUGGGAUGGGGACAGGGUGCACAGCAGGGCGGGGUAGGACCCCAGCCUCU,-0.907
AAGUCCUGUGCUACACAUCGUAUGUACCGAAUCGGGAAAAGGGAAAAGGAAAAGGGGAAAGUAUUAUGUUACGCCGUUCGGAUCUGCACU,-0.904
AGUCCUGUGCUACACAUCGUAUGUACCGAAUCGGGGCCCCCGGGCCCCCGGCCCCCGGAAAGUAUUAUGUUACGCCGUUCGGAUCUGCAC,-1.85
UGGCCCUGGUGGCAUGCGCGGAGGAAGAGGUGGCCUCAUGGAUCGUGGUGGUCCCGGUGGAAUGUUCAGAGGUGGCCGUGGUGGAGACAG,1.83
UUUCUAGGCAAGAGGAGGAACGACGUAGAAGAGAGGAAGAGAUGAUGAUUCGUCAACGUGAGAUGGAAGAACAAAUGAGGCGCCAAAGAG,-0.933
UCCUGUGCUACACAUCGUAUGUACCGAAUCAAACCCCCAAAUUUUUAAACCCCCCCAAAAAAGUAUUAUGUUACGCCGUUCGGAUCUGCA,-0.715
AGUCCUGUGCUACACAUCGUAUGUACCGAAUCAAACCCAAAUUUAAAUUUUUUUAAAAAAGUAUUAUGUUACGCCGUUCGGAUCUGCACU,-1.22
CACAGAUAACACGCACCCACACAGACACAGAGGGAAGGGGUUGGGAUGGGGACAGGGUGCACAGCAGGGCGGGGUAGGACCCCAGCCCCU,-0.338

# Study 3 — method: protein-binding microarray; form: double-stranded DNA, one strand shown; sample: in vitro; concentration: 2540 nM top; setting: 60-bp whole probe; with: salmon DNA 0.4 mg/ml; relative to: random background probes; reading: higher = stronger binding; constant ends, left off below: GCCTAGCAC … GTCTTGATTCGCTTGACGCTGCTG
# Target: Interferon regulatory factor 3, full length, phosphomimetic (IRF3, Homo sapiens, UniProt Q14653, residues 1-427, S386D/S396D/S398D/S402D/T404D/S405D)
# Residues (chain): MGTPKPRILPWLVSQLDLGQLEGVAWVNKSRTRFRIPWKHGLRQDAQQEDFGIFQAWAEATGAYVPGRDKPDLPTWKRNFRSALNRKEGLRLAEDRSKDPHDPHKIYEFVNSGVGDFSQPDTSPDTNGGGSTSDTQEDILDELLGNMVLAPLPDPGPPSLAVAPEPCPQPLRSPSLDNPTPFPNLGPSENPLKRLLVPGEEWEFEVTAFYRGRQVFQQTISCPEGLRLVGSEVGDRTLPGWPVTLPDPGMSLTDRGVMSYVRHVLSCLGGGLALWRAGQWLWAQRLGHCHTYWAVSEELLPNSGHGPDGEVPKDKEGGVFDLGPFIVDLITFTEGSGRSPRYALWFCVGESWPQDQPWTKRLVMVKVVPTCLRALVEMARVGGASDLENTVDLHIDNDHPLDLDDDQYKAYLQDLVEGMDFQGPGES
Sequence,fitted relative affinity [z-score]
TTAGGTTTACTACTGCTTTAGTGCTAG,0.259
TTAGGTTTCCTGTCCCTTTAGTGCTAG,3.27
GGGTCTGTGCCTTTTTTTTTGTGCTAG,0.354
AAGACCATCCTATGTAGATGTGTGCTA,0.0332
TTAGGTATCGGGTAACGGTTAGTGCTA,0.727
GACGGTTCCCTTTTCCTGGCGTGCTAG,6.56
GACGGTTTCGACTTTCGGGATGTGCTA,4.06
CCTGTAATCCCAGCTACTCAGTGCTAG,0.263
TTAGGAATGGGGTTTCGGTTAGTGCTA,2.56
GTAGAACTGGGGTTTCGATTAGTGCTA,1.4
TCATCCATGTGTTTAAAACTGTGCTAG,0.139
TTAGGTTTGGACTATCGGTTAGTGCTA,-0.273
AACGGACTGGGGTATCGGGACGTGCTA,-0.567
TTAGGTATCCTCCTCCTTTAGTGCTAG,2.3
TTAGGACTGGGACTGGGTAAGTGCTAG,-0.862
GACGGTTTGGGTATCGGGACGTGCTAG,0.733
TTAGATCTCAGTTTCCATTAGTGCTAG,4.23
TTGGGTTTCGGGTATCGGTTAGTGCTA,3.42
TTAGATATCGGGTATCGATCAGTGCTA,0.139
GACGGTTTCCTACGGCTGACGTGCTAG,3
GGTCTTTCCACTTTCTTTTGGTGCTAG,2.08
GACGGTTTCGGTATTGGGACGTGCTAG,7.67
GACGGACTGGGTTTAGGGACGTGCTAG,-0.724
TCTAATATTCATTTTATTCAGTGCTAG,1.12
CTTTAACTCATTCTCTGCTTGTGCTAG,1.48

# Study 4 — method: protein-binding microarray; form: double-stranded DNA, one strand shown; sample: in vitro; concentration: not given; reading: higher = stronger binding
# Target: Protein max, full length (MAX, Homo sapiens, UniProt P61244-2, residues 1-151)
# Setting: k-mer, scored over probes, only values ≥0.25
Sequence,E-score
GGCAACAC,0.251
ATGTGCTC,0.417
ACGCGTTG,0.275
CGTGGAAC,0.323
CCCCGCGC,0.265
AGATGCAC,0.287
ACACGGGT,0.299
CGTGTTTA,0.396
GAGCGTGA,0.342
AAGAGCAC,0.259
ACGCGCAC,0.345
AGGTGCAT,0.333
GCCCACGC,0.439
CACATGTC,0.478
GCATACAC,0.264
CGTGCTAC,0.408
GCCCCTCC,0.295
CTCATGGA,0.265

# Some of these lines once more (study 4):
Sequence,E-score
GAGCGTGA,0.342
CGTGGAAC,0.323
CGTGCTAC,0.408
ACGCGTTG,0.275
ACGCGCAC,0.345
ATGTGCTC,0.417
